Measurements from different studies.
Parts stem from different laboratories: compare values within a part only. Changes are numbered by the printed parent chain.

Block 1
Target: RNA binding protein fox-1 homolog 2, RRM domain, GST-SBP tag (RBFOX2, Homo sapiens, UniProt O43251-10, residues 100-194)
Method: RNA Bind-n-Seq
Molecule type: RNA
Matrix: in vitro
Concentration: 365 nM
Setting: natural RNA segment, single round, ends assumed
Reference: no-protein control
Direction: higher = stronger binding
All sequences stand within: GGGAGUUCUACAGUCCGACGAUC … UGGAAUUCUCGGGUGCCAA
Target sequence (chain): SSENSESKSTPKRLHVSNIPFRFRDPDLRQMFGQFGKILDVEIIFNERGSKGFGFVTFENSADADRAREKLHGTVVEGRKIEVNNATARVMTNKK
Strand	RBNS enrichment (R)
ACCUUGGUAUUCCUUCUCAUUCAGUCCCCAGCACAUCCGGCUACCCCUAGCUCUCUCCACAUUCAUUCCUCAAGUCUCUCAUUUACAUGGUUUGACUUUUUAAUUCUAGU	0.89
UGGAAAUAACAGGCGGGCUUCACGGUGCGGCUCUGUCCGCCCAUGCCCCGCUGGGUCUGCAGGGAACUGGACUGUCCCAUGGCCUGUGAGCACCGGAGCGCCUGGCUGCC	0.262
ACACUGAGUUGUACAAAUUGUGAUUGAGGAGAUGAAAAAGUUUAUACUUUUUAAAAAAAAAAAAAACAAAAAACAAAACUUCAAAUGGAAUAAAUUAUUCAUGAAGCCUU	0.777
UCUUACAGAGUAUCUUUAAAAGUGCCUUAGGGGAACCCUGUCCCUCCUAACAAGUGUAUCUCGAUUAAUAACCUGCCAGUCCCAGAUCACACAUCAUCAUCGAAGUCUUC	0.456
UGAAUAACUUCCCAGACACUUAUCUCCAGGGCAGGGUGCCUUCCAGUAGCCAAGGGAAGCCUCCAGAGAGCACAGAUGUGAACCCUCAGCAGCAGGCAUCACCCCCCAGU	0.501
AAAACAAAACAUAUUAUCGCAAGGGCUUUCAUUUCAGUAUUGGCUGUGUCACUGGCAGGAUGCAUCACUCUCCAGGGCCUCUUUUUCGGAGCUACUCCCAAUUCCACUCU	1.21
CAUCCUAAUGGAGACACACAAAACUGUUGGUAAGAAGAUGCAACAGAUCCAAAGGGAAAUUCUAGAGAUCUCUUAGUAAUGUAGUAAGGCAGGCCUUCUUCUUCCGGAGU	0.504
ACUUCUCCUGGAUCCAACCUGACAGGAGAUGACUGGAUUGCUGGGGUAGAGAAGGAAAGGCUGUCCCCGACAGCAGCCAGAAGUCUGUGGGAGUGAGGUCAUUCCUGACC	0.292
GAGCCUGUUCCUCACUGGAAAUUGGCCUCUGUGUGUGUGUGUGUGUGUGUGUGUGUGUGUAUGUUCAUGUACACUUGGCUGUCAGGCUUUCUGUGCAUGUACUAAAAAAG	4.07
UAAUUAUUUGAUAACUCUUGUAAAUAGGUGGAAUAUGAAUGCUUGGAAAAUUAAACUUUAAUUUAUUGACAUUGUACAUAGCUCUGUGUAAAUAGAAUUGCAACUGUCAG	0.996
ACAUUUUUCAUUCUCUCUGGAAACAGACUCAGGUUUCUUUGGACCAAAUCCAAAAGAACACAUAGCUGUAACACAGCUGUAGUUGACUAGAAUGCUCUGUAUACUUUAUA	0.333
AAGAGGCUUUUUGUUUUGUUUUUGUUUUUGUUUUUAGAAGCAGUUCGUAGUAUUUGAAAGAAUAAAUCAAGUUUUGAUUAUGCUAUAGGUUGAUUUUUGUGUUGAUCCAA	2.35

Block 2
Target: PABPC1L2, full length, GST fusion (mouse, UniProt A0ABA7IW68)
Method: RNAcompete
Molecule type: RNA
Matrix: in vitro
Concentration: 20 nM
Setting: 7-mer, probes averaged, single round
Reference: mean of 7-mers
Direction: higher = stronger binding
Construct (chain): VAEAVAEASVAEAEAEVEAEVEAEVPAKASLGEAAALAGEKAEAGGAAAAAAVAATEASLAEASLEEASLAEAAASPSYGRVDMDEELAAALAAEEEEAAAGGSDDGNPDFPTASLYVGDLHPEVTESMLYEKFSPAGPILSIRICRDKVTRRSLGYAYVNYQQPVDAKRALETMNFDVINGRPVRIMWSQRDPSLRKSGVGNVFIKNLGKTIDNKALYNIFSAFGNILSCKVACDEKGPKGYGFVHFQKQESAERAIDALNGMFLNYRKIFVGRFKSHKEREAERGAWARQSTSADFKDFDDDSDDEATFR
Strand	7-mer Z-score
CACUUCU	-0.249
ACCAUUG	-0.242
ACAUCGA	0.18
UUCCAUU	-0.233
GAGAGAG	0.171
CGCCACA	-0.124
AGUGGCC	0.137
ACCUCGC	-0.376
CGCUUCG	-0.34
UCCGAAC	-0.249
CCUUACA	-0.264
UGGUGAA	0.0968
GACCCGA	-0.128
GCAUCAU	-0.18
GUACAGC	-0.153
ACCGAAC	-0.151
CUUCGUU	-0.518
UUGCUGU	-0.364

Block 3
Target: RING finger protein unkempt homolog, zinc fingers 1-6, SBP tag (UNK, Homo sapiens, UniProt Q9C0B0, residues 30-357)
Chain of UniProt Q9C0B0 (30-357, looked up): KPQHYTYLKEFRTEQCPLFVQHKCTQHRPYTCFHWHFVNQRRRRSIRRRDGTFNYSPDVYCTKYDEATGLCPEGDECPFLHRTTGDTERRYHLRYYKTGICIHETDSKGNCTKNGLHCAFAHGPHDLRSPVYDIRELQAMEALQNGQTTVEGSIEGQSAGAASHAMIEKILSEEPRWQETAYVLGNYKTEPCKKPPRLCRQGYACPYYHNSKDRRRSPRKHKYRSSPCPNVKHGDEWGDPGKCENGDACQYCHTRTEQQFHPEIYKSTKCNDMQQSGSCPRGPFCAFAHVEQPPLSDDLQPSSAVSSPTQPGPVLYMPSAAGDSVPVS
Method: RNA Bind-n-Seq
Molecule type: RNA
Matrix: in vitro
Concentration: 100 nM
Setting: RNA with constant flanks, vertebrate orthologous sites, ends assumed
Reference: input RNA pool
Direction: higher = stronger binding
All sequences stand within: GGGAGUUCUACAGUCCGACGAUC … CAACAGAGGAUUGAGCAUCA
Strand	bound/input enrichment [ratio]
CUGUUUUGUGAAACAUGUCUACCCAGAAAAGUAGCAUUCUAUGAAUACUAUUAAACAACUUAGCUAUAUUAUUUUUAACUAUUAAAUUAUAUGUCAAGCAGUUAAAGUGAAUUUCAGAGU	0.57
CAUGAGCAUCUGUGUUAACUCCAAAGGCUUUGACACUUUGGCUCAUUAUACAUUUAAUCAUUCUUCCACGCCAGUUUCCUAAAAAUAGCAGUGUAGAUUCAGAGGGAUACCAAUGCUCCC	0.877
UAGUGCUAAAGCCAAUGGUGGUUCUAAAAUACUAUUUAUUUGUGUCUAUAAGUUUGUACAUAGUAAUACCAACCUCAUUGUUACUGAAUUUUUCAUGGAGGGGGGCAAGUUUGACUUUUG	1.24
CUGUGUUAGCACCCCGCCAGCCUACCAGCCUCUCUGUGCCCAGCUUCAAAUGGUAUGGUCUAGCUAGAUUUUUAUUUAAAAUAUGAAAAACUGCUUUUCCCAAGAUGUUUUUUAAAAGGA	0.658
UCUCUACAGUUUUAAAGACACUCCCUUAUAAGGCACUUUGGCUCUUCAUAUAUUUAACCGUAUUUACAUAUCUAUUUUUUAUAAGUAGCAGUAUAAAUUCAAAGGGGACUCCAACCUUUA	0.393
UCCUCAACUUGUUCUAGCUGGCGAUCCUUCAAAGUUGGGUCAGGCAUUAGUGCUAGGUACUAGCAGUGUUCAUUUCUCUGUUGCCAUUGAUCAGAGAGACAAGACGUUAAAAAGAGUAAU	0.477
CCGCCGAUUCACUCAUUGGGAGAGCGGCACAUAUAGCUGUUCUUGACUCGGAAAUAUUUUUAGAGAAAUUCUUUCUGGUUGCUGCCCUCAAAUAUUUCCAGUAGAAUAAAAGCAUUGUUA	0.526
CAGAGCAGCAUGGGCUGUUGAGCUGUGGAAAACUGAGCUUUGCAUUUUUUUAUAUUUAAAUAGGAUACUUUUAUAUGAUGGGUGCUUUGAGUGUGAAUGCAGCAGGCUUUCCUUUUCAGA	1.52
GUGUCUUGGUUUGGGGUAGAGGGGAGGGAGGGGCAGGACUGUGGAAUCUCUAGGGUAUAUUGGUAGAUAAUGGUGCACAGUUAGUUGUAAGUGGGCCUUUAUGUUAUAAACCUCUGGGGG	1.14
CAGCUGAUUCACUCAUUGGCAGAGCUGCACAUAUAGCUGUUCUGGAUUCAGAAAUAUUUUUAGAGAAAUUCUUUCUGGUUGCUGCCCUCAAAUAUUUCCAAUAGAAUUAAAAACAUUGGU	0.926
GGCUACAAGAGCUCACAAACUCAAAGGAAAACUAGUCAAGAGUUUCUAAUAGUUAAAAGCUAGGAAAGAUUAGGACAACUUUACAAAUGAGCAAUUAAAAAGAAAAAGGAUAUGGAAACU	0.545

Block 4
Target: TEF, bZIP domain (human)
Method: DHFR protein complementation
Matrix: yeast
Setting: single substitutions, most at no-binding floor
Reference: wild-type JUN-FOS pair
Direction: higher = stronger binding
Starting sequence: JUN, bZIP domain (human); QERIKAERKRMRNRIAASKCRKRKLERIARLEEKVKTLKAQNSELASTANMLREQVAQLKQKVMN; partner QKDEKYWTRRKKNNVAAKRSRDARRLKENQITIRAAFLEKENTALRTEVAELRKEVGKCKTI
Variant	binding fitness [natural log]
L52A	-1.52
N42W	-1.48
I28S	-1.36
K36L	-1.44
S47E	-1.38
A57W	-1.48
R30F	-1.5
A57G	-1.46
E54M	-1.48
E44S	-1.39
K39I	-0.889
A57R	-1.52
M51T	-1.18
E44P	-1.44
E44R	-1.29
L45P	-1.55
L38E	-1.53
Q41T	-1.56
A46T	-1.34
S43I	-1.28
L38G	-1.52

Block 5
Target: CCNB3, cyclin fold, Cln2 fusion (human)
Method: yeast growth competition, sequencing
Matrix: yeast
Setting: weak parent motif
Reference: not given
Direction: higher = stronger binding
Starting sequence: CDC25A docking peptide (human); PPHRRRLLFACSP
Variant	normalised enrichment score
R4I	0.777
L7Y	0.135
P2W	0.158
L8A	0.0956
P2D	0.025
C11I	0.317
R6I	0.113
P1K	0.705
P13L	-0.0151
A10P	0.118
R5M	0.485
A10R	0.178
P1G	0.186
R6L	0.334
A10Q	0.234
R6A	0.0995
P2H	0.357

For quick reference, copied from above (block 5):
Variant	normalised enrichment score
A10Q	0.234
R6A	0.0995
P2H	0.357
P13L	-0.0151
L7Y	0.135
A10P	0.118
C11I	0.317
R4I	0.777
R6I	0.113
R6L	0.334
P2W	0.158
P1K	0.705
